Measured values from different studies.
Numbered parts are unrelated; each lists some results of a single study.

Block 1 — method: RNA Bind-n-Seq; form: RNA; sample: in vitro; tested at: 1 µM; notes: whole 134-nt RNA, ends assumed; together with: 150 mM KCl; reference: input library; reading: higher = stronger binding
Target: Ras GTPase-activating protein-binding protein 1, C-terminal RGG region (G3BP1, Homo sapiens, UniProt Q13283)
Sequence of UniProt Q13283 (whole entry, looked up): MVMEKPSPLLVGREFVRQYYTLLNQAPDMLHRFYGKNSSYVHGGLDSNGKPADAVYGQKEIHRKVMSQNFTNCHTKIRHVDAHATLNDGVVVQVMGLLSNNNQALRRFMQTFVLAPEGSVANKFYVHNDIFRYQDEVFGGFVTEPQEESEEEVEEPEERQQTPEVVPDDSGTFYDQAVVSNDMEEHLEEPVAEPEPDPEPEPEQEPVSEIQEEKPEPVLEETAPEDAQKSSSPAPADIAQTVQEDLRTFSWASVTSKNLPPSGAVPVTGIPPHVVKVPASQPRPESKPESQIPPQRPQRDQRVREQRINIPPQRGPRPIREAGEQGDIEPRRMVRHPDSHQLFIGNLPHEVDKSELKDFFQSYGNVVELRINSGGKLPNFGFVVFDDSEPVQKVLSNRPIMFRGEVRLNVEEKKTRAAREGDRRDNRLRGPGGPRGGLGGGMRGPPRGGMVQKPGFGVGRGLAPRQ
All sequences stand within: GGGAGUUCUACAGUCCGACGAUC … UGGAAUUCUCGGGUGUCAAGG
Strand | log2 enrichment
AAGUCCUGUGCUACACAUCGUAUGUACCGAAUCGGGAAAAAAAGGGUGGGAAAGGGAAAGUAUUAUGUUACGCCGUUCGGAUCUGCACUU | 0.827
UGGCCCUGGUGGCAUGCGGGGAGGUAGAGGUGGCCUCAUGGAUCGUGGUGGUCCCGGUGGAAUGUUCAGAGGUGGCCGUGGUGGAGACAG | 2.51
GCAGGAAGUAAAAACAAAUGCAAAUGCUUCGGAUAGUGGCAGGGGUGGGGGUUGCUAAGGAAAGGGUGGGAUGGGAGUGGGUAAAGAGUU | 2.01
AGUCCUGUGCUACACAUCGUAUGUACCGAAUCGGCCCCCGGGCCCCCGGGCCCCCGGGAAAGUAUUAUGUUACGCCGUUCGGAUCUGCAC | -2.13
UCCUGUGCUACACAUCGUAUGUACCGAAUCGGGGUGGGGAAAAAAAGGGGUUUUUGGGGAAAGUAUUAUGUUACGCCGUUCGGAUCUGCA | 1.89
CAAGUCCUGUGCUACACAUCGUAUGUACCGAAUCGGAAAGGAAAGGAAAAAAAGGAAAGUAUUAUGUUACGCCGUUCGGAUCUGCACUUC | -1.71
UGGGAGGUGGAUUUUGUUUAUUUUUUUAGCUCAUUUCCAGGGGUGGGAAUUUUUUUUUAAUAUGUGUCAUGAAUAAAGUUGUUUCUGAAA | 2.47
CAAGUCCUGUGCUACACAUCGUAUGUACCGAAUCGGAAAAAAAGGUUUUUGGUGGAAAGUAUUAUGUUACGCCGUUCGGAUCUGCACUUC | -1.83
GUCCUGUGCUACACAUCGUAUGUACCGAAUCAAAUUUUUAAAUUUUUUUAAAUUUAAAAAAGUAUUAUGUUACGCCGUUCGGAUCUGCAC | -2.87

Block 2 — method: universal PBM; form: double-stranded DNA, one strand shown; sample: in vitro; tested at: not given; reading: higher = stronger binding
Target: Sal-like protein 4, full length isoform B (SALL4, Homo sapiens, UniProt Q9UJQ4-2, residues 1-616)
Notes: 8-mer, flanks averaged, mean of replicates
Target sequence (chain): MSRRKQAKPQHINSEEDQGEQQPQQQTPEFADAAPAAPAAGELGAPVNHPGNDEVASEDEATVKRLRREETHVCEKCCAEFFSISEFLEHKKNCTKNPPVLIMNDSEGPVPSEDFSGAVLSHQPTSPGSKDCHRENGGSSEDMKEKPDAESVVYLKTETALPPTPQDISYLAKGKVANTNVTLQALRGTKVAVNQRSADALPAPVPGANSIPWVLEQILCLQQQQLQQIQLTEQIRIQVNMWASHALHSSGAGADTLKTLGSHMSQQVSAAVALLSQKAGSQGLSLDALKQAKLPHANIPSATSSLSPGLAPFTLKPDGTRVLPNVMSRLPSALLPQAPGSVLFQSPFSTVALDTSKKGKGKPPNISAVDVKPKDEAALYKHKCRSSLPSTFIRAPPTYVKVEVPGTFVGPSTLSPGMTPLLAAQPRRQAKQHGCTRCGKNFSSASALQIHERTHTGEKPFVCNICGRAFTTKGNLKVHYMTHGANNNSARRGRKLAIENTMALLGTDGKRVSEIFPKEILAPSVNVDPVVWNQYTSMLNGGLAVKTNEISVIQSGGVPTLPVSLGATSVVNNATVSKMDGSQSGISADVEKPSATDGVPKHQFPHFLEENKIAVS
Strand | E-score
CCTGAAGA | -0.144
AAACTGCC | -0.0856
CTTACCCA | 0.122
ACCTGACG | -0.162
ACCGCCGC | -0.271
ACTCCGCG | -0.287
AGGTCTCG | -0.138
ACCAGGAC | -0.0915
AGGCAAGG | -0.148
CGCAGTAG | -0.174
AAACCTGA | -0.0423
AGCCAACA | -0.0645
GCATACCA | -0.0638
GTGCTTAA | 0.0871
GAAGCGCC | -0.246
AGGAGTCC | -0.224
AGGCTAAG | -0.197
ACGACAAA | 0.145
CGTTAGAA | 0.121
GCATAGTA | 0.138
AGAGATGA | 0.0501
TCAACAGA | 0.0432

Block 3 — method: protein binding microarray; form: double-stranded DNA, one strand shown; sample: in vitro; tested at: not given; reference: not given; reading: higher = stronger binding
Target: Histone acetyltransferase KAT6A, both winged helices, GST fusion (KAT6A, Homo sapiens, UniProt Q92794, residues 1-181)
Notes: 8-mer, flanks averaged, mean of 2 arrays, mostly near background
Construct (chain): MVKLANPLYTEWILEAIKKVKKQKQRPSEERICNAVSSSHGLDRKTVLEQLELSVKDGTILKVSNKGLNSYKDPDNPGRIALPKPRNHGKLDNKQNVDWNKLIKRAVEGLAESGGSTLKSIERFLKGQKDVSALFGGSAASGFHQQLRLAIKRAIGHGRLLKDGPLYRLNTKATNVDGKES
Strand | E-score
ATTCGTAA | -0.104
AAACAACT | -0.161
GTGTTACA | -0.0107
TGTAGCAA | -0.116
CACAGACG | -0.0226
CTACAATA | 0.0178
AACATTGG | -0.24
CATGGCTA | -0.196
ATAAGTTG | -0.0912
GCAGACTA | -0.00408
CTGAGTCA | -0.0419
AGCTATGC | -0.0099
CGGCCACG | 0.19
CACCCGAG | -0.105
GTGCTTGA | -0.169
CTAATAAC | 0.00517
ATTAGATA | -0.0572
AAGCATTG | -0.156
CGGCCGAC | 0.348
CCGATCAG | 0.103
AGGGGATG | -0.241
ATTGCCAC | -0.0767
GACACGGA | 0.201
GCGTAGGA | 0.116
CGAAATAG | 0.0574

Block 4 — method: protein-binding microarray; form: double-stranded DNA, one strand shown; sample: in vitro; tested at: 940 nM top; notes: 60-bp whole probe; together with: salmon DNA 0.4 mg/ml; reference: random background probes; reading: higher = stronger binding; all sequences stand within: GCCTAGCAC … GTCTTGATTCGCTTGACGCTGCTG
Target: Interferon regulatory factor 5, full length, phosphomimetic (IRF5, Homo sapiens, UniProt Q13568-2, residues 1-514, S451D/S453D/S456D/S462D)
Strand | fitted relative affinity
TATGAAATGGAAGTTTAGGGGTGCTAG | -0.191 z-score
TTTGGACTGCTTATCCTTTAGTGCTAG | -0.134 z-score
TTAGGTTTCGGCTATCGGTTAGTGCTA | 10.2 z-score
ATAGAACTGAGTATCGATTAGTGCTAG | 4.16 z-score
TCAGCTCTGCGGTTCAGACTGTGCTAG | -0.584 z-score
GACTGACTGGGACTGGGGACGTGCTAG | -0.479 z-score
GACGGTTTCGGGACGGGGGACGTGCTA | 10.2 z-score
GACGAACTGGGGACTGGAAACGTGCTA | 0.116 z-score
TCAAGTCTAGCCATTGTGACTGTGCTA | -0.441 z-score
TGGGATTTTCCCATGAGTCTGTGCTAG | -0.146 z-score
TTGTGTCTGGGCATTTTTTTTGTGCTA | -0.57 z-score
GACGGTCTCGGAATGGGGACGTGCTAG | 1.47 z-score
TTAGGTCTAGGTATCGGTTAGTGCTAG | 3.78 z-score
GACGGTAACGGTTTCGGGACGTGCTAG | 3.42 z-score
TTAGATATCAGACTGGCTTAGTGCTAG | -0.175 z-score
TTAGATTTCGGGTTACGATTAGTGCTA | 1.56 z-score
TTAGGTATTGACTTTCGGTTAGTGCTA | 3.37 z-score
TGTCTTTTCATTTTCTTTAAGTGCTAG | 2.29 z-score
TCATGATCCATTTTGGTACTGTGCTAG | 0.11 z-score

Excerpt of the above (block 4):
Strand | fitted relative affinity
TTAGGTTTCGGCTATCGGTTAGTGCTA | 10.2 z-score
TATGAAATGGAAGTTTAGGGGTGCTAG | -0.191 z-score
TCATGATCCATTTTGGTACTGTGCTAG | 0.11 z-score
TCAGCTCTGCGGTTCAGACTGTGCTAG | -0.584 z-score
TTAGGTCTAGGTATCGGTTAGTGCTAG | 3.78 z-score
TCAAGTCTAGCCATTGTGACTGTGCTA | -0.441 z-score
TTGTGTCTGGGCATTTTTTTTGTGCTA | -0.57 z-score
